{"data": "Published values pooled from the literature", "note": "Parts stem from different laboratories: compare values within a part only."}
{"data": "Series 1", "target": "Sal-like protein 4, full length isoform A (SALL4, Homo sapiens, UniProt Q9UJQ4, residues 1-1053)", "technique": "universal PBM", "molecule type": "double-stranded DNA, one strand shown", "matrix": "in vitro", "tested at": "600 nM", "setting": "8-mer, flanks averaged, mean of replicates", "reading": "higher = stronger binding", "chain of UniProt Q9UJQ4 (whole entry, looked up)": "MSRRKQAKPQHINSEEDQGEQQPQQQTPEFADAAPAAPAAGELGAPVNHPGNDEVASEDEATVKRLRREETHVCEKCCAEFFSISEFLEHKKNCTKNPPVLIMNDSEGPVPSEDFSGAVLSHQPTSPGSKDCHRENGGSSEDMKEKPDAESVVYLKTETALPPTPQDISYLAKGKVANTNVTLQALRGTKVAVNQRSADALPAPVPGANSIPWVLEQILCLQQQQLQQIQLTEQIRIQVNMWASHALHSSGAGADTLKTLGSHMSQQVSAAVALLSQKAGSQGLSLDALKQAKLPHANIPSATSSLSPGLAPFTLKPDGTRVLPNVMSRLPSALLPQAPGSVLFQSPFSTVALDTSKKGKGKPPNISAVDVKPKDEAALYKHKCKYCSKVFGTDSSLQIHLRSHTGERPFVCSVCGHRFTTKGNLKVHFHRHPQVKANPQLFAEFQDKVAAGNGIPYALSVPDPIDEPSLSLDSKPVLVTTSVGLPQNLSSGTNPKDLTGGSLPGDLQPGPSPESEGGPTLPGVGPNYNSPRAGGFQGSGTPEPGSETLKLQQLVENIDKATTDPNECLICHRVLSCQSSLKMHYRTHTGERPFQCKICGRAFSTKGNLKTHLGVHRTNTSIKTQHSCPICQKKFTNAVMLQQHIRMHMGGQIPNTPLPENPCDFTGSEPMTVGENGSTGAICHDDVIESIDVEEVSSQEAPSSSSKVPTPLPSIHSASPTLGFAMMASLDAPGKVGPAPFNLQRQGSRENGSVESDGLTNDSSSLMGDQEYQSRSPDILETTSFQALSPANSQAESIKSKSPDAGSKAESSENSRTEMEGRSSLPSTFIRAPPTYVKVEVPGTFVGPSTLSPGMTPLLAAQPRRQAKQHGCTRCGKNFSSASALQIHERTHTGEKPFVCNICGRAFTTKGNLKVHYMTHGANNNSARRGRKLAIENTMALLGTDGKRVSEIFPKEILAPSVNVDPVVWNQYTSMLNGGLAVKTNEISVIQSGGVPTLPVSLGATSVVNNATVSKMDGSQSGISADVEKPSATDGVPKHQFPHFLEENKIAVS"}
{"Sequence": "CTATCGCA", "E-score": 0.00243}
{"Sequence": "CAAGGGAC", "E-score": -0.228}
{"Sequence": "TATTGTGA", "E-score": 0.232}
{"Sequence": "GAAGATTC", "E-score": 0.0482}
{"Sequence": "ATAACAAT", "E-score": 0.31}
{"Sequence": "CAGCCGCA", "E-score": -0.333}
{"Sequence": "ATCTAATA", "E-score": 0.336}
{"data": "Series 2", "target": "Protein max, full length (MAX, Homo sapiens, UniProt P61244-2, residues 1-151)", "technique": "protein-binding microarray", "molecule type": "double-stranded DNA, one strand shown", "matrix": "in vitro", "tested at": "not given", "setting": "k-mer, scored over probes, only values ≥0.25", "reading": "higher = stronger binding"}
{"Sequence": "GACCATGC", "E-score": 0.44}
{"Sequence": "ACATGGTA", "E-score": 0.339}
{"Sequence": "AACTCACG", "E-score": 0.279}
{"Sequence": "ACAGGTGG", "E-score": 0.403}
{"Sequence": "CATGCGAA", "E-score": 0.257}
{"Sequence": "ATCACGTG", "E-score": 0.495}
{"Sequence": "CAGCGTGA", "E-score": 0.428}
{"data": "Series 3", "target": "Prothrombin, mature alpha-thrombin (F2, Homo sapiens, UniProt P00734)", "technique": "aptamer microarray, sandwich", "molecule type": "DNA with 2'F-ANA", "matrix": "in vitro", "tested at": "200 nM", "setting": "whole 15-mer aptamer, many near background", "with": "Cy3 exosite-II aptamer, 400 nM", "reading": "higher = stronger binding", "sequence": "GGTTGGTGTGGTTGG"}
{"Modification": "2'F-ANA at 1 4 5 8", "mean fluorescence intensity [a.u.]": 69}
{"Modification": "2'F-ANA at 1 3 5 6 7 10 14 15", "mean fluorescence intensity [a.u.]": 45.9}
{"Modification": "2'F-ANA at 12 15", "mean fluorescence intensity [a.u.]": 851}
{"Modification": "2'F-ANA at 1 2 4 6 7 8 10 11 13", "mean fluorescence intensity [a.u.]": 55}
{"Modification": "2'F-ANA at 3 4 6 7 9 12 13", "mean fluorescence intensity [a.u.]": 586}
{"Modification": "2'F-ANA at 1 4 10 12 15", "mean fluorescence intensity [a.u.]": 58.9}
{"Modification": "2'F-ANA at 1 3 6 7 8 12 14", "mean fluorescence intensity [a.u.]": 128}
{"data": "Further values, each from its own experiment"}
{"Molecule": "PhoQ, residues 284 288 289 292 302 303 HSYLQF", "target": "PhoP, residues 12 14 15 18 19 GMGLL (Escherichia coli, UniProt P23836)", "test": "Sort-seq, measured: YFP reporter", "test system": "E. coli", "setting": "PhoQ-PhoP variant library, with: 10 µM Mg2+", "scale": "reference: high Mg2+ state, higher = stronger signaling", "quantity": "fold induction", "value": 0.895}
{"note": "A few entries again (series 1):"}
{"Sequence": "CAAGGGAC", "E-score": -0.228}
{"Sequence": "ATCTAATA", "E-score": 0.336}
{"Sequence": "CTATCGCA", "E-score": 0.00243}
